Experimental data of several laboratories.
Numbered parts are unrelated; each lists some results of a single study. “And” joins repeats or separate records; there may be more than shown.
Sequence of UniProt P10721 (whole entry, unmodified, looked up): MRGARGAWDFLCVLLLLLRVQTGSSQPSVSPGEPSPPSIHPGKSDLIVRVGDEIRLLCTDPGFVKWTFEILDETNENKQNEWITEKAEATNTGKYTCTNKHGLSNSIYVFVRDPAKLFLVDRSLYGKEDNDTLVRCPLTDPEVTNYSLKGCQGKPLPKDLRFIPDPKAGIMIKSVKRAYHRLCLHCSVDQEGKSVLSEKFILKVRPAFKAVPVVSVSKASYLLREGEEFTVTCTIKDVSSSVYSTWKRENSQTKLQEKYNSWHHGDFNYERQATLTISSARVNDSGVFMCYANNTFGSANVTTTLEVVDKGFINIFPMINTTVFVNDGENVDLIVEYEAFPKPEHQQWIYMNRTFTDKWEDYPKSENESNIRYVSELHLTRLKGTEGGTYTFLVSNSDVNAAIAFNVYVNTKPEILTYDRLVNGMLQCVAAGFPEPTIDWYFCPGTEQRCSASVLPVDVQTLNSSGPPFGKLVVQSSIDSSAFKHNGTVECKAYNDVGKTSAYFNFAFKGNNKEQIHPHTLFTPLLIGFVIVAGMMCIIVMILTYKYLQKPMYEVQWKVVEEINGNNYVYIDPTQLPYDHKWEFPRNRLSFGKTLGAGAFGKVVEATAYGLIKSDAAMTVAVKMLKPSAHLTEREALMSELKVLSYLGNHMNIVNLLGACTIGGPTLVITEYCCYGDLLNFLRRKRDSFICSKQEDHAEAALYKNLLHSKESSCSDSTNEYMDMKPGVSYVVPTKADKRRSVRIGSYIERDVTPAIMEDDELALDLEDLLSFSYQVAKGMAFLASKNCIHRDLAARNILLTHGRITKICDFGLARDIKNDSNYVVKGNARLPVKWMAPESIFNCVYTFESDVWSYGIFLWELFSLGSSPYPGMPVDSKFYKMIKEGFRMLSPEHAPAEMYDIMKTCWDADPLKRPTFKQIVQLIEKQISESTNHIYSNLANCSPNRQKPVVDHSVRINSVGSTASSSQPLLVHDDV
Sequence of UniProt Q9H1R3 (whole entry, looked up): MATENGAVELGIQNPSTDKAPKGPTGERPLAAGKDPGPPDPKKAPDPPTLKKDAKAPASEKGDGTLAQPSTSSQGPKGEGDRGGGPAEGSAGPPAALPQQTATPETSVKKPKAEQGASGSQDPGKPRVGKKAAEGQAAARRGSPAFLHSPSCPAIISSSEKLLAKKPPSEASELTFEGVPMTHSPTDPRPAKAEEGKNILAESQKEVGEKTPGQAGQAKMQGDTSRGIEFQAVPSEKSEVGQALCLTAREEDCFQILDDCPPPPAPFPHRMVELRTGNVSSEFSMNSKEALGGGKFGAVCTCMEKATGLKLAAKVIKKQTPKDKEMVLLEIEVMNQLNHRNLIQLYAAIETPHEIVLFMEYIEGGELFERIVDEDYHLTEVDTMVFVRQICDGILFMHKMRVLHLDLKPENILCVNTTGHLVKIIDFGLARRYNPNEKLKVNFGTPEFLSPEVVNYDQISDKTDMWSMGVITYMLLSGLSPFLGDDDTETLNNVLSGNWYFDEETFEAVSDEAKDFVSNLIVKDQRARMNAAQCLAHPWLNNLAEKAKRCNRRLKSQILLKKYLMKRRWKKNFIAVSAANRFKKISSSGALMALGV
Sequence of UniProt Q13555 (whole entry, looked up): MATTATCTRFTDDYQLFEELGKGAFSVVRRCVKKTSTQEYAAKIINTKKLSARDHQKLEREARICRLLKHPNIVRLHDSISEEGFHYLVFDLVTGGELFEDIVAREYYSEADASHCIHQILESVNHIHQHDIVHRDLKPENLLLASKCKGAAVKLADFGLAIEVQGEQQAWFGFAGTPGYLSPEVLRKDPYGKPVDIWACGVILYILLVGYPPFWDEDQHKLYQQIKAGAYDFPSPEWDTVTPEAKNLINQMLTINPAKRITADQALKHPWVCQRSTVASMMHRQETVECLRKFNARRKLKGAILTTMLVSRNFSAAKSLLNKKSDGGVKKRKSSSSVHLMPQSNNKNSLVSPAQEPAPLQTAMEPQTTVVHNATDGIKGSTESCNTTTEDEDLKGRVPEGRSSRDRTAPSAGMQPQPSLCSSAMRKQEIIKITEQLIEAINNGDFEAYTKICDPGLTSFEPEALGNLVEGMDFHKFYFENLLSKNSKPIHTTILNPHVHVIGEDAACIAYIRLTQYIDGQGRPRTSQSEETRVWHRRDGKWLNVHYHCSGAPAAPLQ
Sequence of UniProt Q9HC98 (whole entry, looked up): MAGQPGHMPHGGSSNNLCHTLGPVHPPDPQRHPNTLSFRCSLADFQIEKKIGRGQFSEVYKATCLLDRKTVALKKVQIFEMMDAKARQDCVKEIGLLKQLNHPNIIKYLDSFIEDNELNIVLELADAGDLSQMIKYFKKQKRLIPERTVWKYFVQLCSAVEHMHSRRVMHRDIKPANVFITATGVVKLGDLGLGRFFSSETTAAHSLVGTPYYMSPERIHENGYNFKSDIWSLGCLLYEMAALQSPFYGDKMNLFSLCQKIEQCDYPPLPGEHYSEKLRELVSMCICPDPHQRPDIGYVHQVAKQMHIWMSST
Sequence of UniProt O75914 (whole entry, looked up): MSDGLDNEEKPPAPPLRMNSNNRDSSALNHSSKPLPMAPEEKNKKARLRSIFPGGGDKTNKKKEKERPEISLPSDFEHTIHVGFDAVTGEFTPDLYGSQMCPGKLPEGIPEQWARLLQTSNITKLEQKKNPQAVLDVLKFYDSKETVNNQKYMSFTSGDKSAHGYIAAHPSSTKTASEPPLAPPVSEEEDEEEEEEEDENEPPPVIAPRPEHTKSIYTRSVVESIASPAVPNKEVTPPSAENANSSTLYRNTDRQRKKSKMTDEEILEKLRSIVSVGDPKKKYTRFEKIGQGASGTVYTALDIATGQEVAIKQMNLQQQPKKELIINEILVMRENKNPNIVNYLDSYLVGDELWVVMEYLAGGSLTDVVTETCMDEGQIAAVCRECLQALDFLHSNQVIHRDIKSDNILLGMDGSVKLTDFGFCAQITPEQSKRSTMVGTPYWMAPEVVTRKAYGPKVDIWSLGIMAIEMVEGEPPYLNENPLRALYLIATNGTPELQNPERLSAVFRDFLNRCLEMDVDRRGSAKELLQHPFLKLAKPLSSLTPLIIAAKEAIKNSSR
Sequence of UniProt P41240 (whole entry, looked up): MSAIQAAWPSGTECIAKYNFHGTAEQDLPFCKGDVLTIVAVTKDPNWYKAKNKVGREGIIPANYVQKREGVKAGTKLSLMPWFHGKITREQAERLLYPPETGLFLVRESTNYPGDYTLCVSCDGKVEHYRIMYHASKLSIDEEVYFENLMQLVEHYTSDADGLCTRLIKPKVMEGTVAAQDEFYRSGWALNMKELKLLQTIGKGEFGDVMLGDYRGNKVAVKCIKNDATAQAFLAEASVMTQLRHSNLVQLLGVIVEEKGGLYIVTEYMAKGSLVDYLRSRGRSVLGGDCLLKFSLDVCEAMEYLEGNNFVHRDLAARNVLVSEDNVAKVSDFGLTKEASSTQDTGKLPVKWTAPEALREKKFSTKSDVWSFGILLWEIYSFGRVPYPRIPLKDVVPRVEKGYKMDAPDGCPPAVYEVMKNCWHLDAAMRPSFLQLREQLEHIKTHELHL
Sequence of UniProt P32298 (whole entry, looked up): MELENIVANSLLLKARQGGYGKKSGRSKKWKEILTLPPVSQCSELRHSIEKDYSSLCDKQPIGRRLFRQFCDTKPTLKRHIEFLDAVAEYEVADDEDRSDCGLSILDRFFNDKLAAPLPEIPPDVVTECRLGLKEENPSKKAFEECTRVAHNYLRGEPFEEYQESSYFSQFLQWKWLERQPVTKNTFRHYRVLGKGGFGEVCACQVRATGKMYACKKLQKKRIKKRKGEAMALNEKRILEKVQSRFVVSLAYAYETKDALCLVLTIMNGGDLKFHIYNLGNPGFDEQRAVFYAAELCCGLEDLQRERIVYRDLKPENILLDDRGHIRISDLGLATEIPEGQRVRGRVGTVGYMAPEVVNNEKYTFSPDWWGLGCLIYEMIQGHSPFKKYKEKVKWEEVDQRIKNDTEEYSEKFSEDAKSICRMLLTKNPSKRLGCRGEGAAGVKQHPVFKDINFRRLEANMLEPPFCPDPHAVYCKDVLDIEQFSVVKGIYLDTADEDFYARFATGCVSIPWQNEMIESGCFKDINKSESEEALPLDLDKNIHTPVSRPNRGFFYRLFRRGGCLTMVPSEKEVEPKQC
Sequence of UniProt Q16539 (whole entry, looked up): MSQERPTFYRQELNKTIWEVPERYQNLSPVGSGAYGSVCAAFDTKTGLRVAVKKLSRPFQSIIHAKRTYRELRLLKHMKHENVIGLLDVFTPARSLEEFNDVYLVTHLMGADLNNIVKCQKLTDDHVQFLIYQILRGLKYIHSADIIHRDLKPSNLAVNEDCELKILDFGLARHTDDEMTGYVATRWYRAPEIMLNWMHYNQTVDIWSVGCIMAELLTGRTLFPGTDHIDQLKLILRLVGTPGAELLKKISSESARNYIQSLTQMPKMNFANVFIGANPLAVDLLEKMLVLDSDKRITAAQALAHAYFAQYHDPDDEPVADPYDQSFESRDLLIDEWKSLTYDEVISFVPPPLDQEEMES

Set 1 — technique: phase 2a trial; host: idiopathic pulmonary fibrosis patients
Structure (SMILES): CC(C)n1cnc(-c2ccc(F)cc2)c1-c1ncc(C(=O)Nc2ccc(N3CCN(C)CC3)cc2)[nH]1
| setting | patients with dyspnoea [%] |
| --- | --- |
| dose not given, adverse event grade 1, all dose arms pooled | 0 |
| 30 mg once daily, adverse event grade 1 | 0 |
| 60 mg once daily, adverse event grade 3 | 0 |

Set 2 — cell line: mouse MPNST tumor cells; technique: high-content immunofluorescence imaging; measured: nuclear SOX9; tested at: 10 µM; time: 12 h; notes: mean of 2 replicates; relative to: DMSO control; direction: higher = more nuclear SOX9
| Compound | nuclear SOX9 intensity |
| --- | --- |
| CCN(CC)CCOC(=O)C(c1ccccc1)c1ccccc1 | 89.6 % of DMSO |
| CC1(C)CCC(C)(C)c2cc(C(O)C(=O)Nc3ccc(C(=O)O)cc3F)ccc21 (centres unmarked) | 133 % of DMSO |
| CC(C)(C#N)c1cc(Cn2cncn2)cc(C(C)(C)C#N)c1 | 92.2 % of DMSO and 94.3 % of DMSO and 96.1 % of DMSO |
| Cc1ccc(S(=O)(=O)N2CCCC2c2ccc(F)cc2)cc1 (centres unmarked) | 113 % of DMSO |

Set 3 — host: human; medium: microsomes or S9; tested at: 2 µM; time: 0.5 h
| SMILES | remaining compound |
| --- | --- |
| CC(C)N(C1=CC(=O)OC12CCCCC2)C(C)C | 40.1% |
| CCc1c(C)sc(NC(=O)CN2CCN(C(=O)C3CCCO3)CC2)c1C(=O)OC (centres unmarked) | 0.0106% |
| NCCN(C1CCOCC1)S(=O)(=O)c1ccc(F)cc1F | 90.2% |

Set 4 — tested at: 1 µM
SMILES: C=CC(=O)N1CCC([C@@H]2CCNc3c(C(N)=O)c(-c4ccc(Oc5ccccc5)cc4)nn32)CC1
| target | test | inhibition [%] |
| --- | --- | --- |
| Mast/stem cell growth factor receptor Kit, autoinhibited (KIT, Homo sapiens, UniProt P10721) | enzyme activity, inhibitor | 4 |
| ALK (Homo sapiens, UniProt Q9UM73, C1156Y) | cell-free assay | 5 |
| SGK1 (Homo sapiens, UniProt O00141) | enzyme activity, inhibitor | 1 |

Set 5 — observed: cell-free assay; technique: competition with immobilised ligand; tested at: 0.1 µM
SMILES: COCCOc1nc(-c2ccc(Cl)nc2)nc2c1CN(C(=O)c1ncn3ccccc13)CC2
| target | remaining binding [%] |
| --- | --- |
| EGFR (Homo sapiens, UniProt P00533, G719C) | 85 |
| KIT (Homo sapiens, UniProt P10721, A829P) | 88 |
| DAPK2 (Homo sapiens, UniProt Q9UIK4) | 100 |
| EGFR (Homo sapiens, UniProt P00533, L861Q) | 99 |
| MAPK4 (Homo sapiens, UniProt P31152) | 100 |
| Tyrosine-protein kinase ABL1, phosphorylated (ABL1, Homo sapiens, UniProt P00519) | 68 |
| Receptor-type tyrosine-protein kinase FLT3, autoinhibited (FLT3, Homo sapiens, UniProt P36888) | 100 |
| TLK2 (Homo sapiens, UniProt Q86UE8) | 100 |
| GRK4 (Homo sapiens, UniProt P32298) | 73 |
| Tyrosine-protein kinase ABL1, non-phosphorylated (ABL1, Homo sapiens, UniProt P00519, Q252H) | 74 |
| MYLK2 (Homo sapiens, UniProt Q9H1R3) | 94 |
| EPHA7 (Homo sapiens, UniProt Q15375) | 100 |
| PAK3 (Homo sapiens, UniProt O75914) | 100 |
| NEK6 (Homo sapiens, UniProt Q9HC98) | 100 |
| CSK (Homo sapiens, UniProt P41240) | 100 |
| MAPK11 (Homo sapiens, UniProt Q15759) | 100 |
| RIOK3 (Homo sapiens, UniProt O14730) | 100 |
| CAMK2G (Homo sapiens, UniProt Q13555) | 100 |
| CDK11A (Homo sapiens, UniProt Q9UQ88) | 100 |
| CDKL3 (Homo sapiens, UniProt Q8IVW4) | 96 |
| CDKL2 (Homo sapiens, UniProt Q92772) | 98 |

Mixed results
ARF22: ARF22 498-598 (Arabidopsis thaliana, UniProt Q9C8N7)
Sequence of UniProt Q9C8N7 (whole entry, looked up): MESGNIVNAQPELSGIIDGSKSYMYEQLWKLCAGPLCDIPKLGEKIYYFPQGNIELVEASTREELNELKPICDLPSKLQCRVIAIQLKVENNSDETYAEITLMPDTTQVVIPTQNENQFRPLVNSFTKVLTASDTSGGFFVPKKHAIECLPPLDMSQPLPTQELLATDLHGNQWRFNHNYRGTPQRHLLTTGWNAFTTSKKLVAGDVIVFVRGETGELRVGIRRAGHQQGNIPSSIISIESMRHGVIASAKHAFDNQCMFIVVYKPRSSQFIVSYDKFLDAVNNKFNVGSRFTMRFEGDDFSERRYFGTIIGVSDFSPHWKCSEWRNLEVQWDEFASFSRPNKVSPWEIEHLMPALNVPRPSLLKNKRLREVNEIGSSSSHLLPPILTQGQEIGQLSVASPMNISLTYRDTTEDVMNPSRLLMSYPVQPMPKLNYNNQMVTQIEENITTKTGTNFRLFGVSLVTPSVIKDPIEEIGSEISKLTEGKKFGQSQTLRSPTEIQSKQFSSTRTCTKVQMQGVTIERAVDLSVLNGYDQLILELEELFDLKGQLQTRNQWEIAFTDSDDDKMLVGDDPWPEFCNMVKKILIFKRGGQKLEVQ
B1: IAA15 (Arabidopsis thaliana, UniProt Q9C966); chain MSPEEYVRVWPDSGDLGGTELTLALPGTPTNASEGPKKFGNKRRFLETVDLKLGEAHENNYISSMVTNDQLVGWPPVATARKTVRRKYVKVALDGAAYLRKVDLGMYDCYGQLFTALENMFQGIITICRVTELERKGEFVATYEDKDGDLMLVGDVPWMMFVESCKRMRLMKTGDAIGL
B2: IAA13 (Arabidopsis thaliana, UniProt Q38831); chain MITELEMGKGESELELGLGLSLGGGTAAKIGKSGGGGAWGERGRLLTAKDFPSVGSKRAADSASHAGSSPPRSSSQVVGWPPIGSHRMNSLVNNQATKSAREEEEAGKKKVKDDEPKDVTKKVNGKVQVGFIKVNMDGVAIGRKVDLNAHSSYENLAQTLEDMFFRTNPGTVGLTSQFTKPLRLLDGSSEFVLTYEDKEGDWMLVGDVPWRMFINSVKRLRVMKTSEANGLAARNQEPNERQRKQPV
B3: ARF10 575-693 (Arabidopsis thaliana, UniProt Q9SKN5); chain LQGLETGHCKVFMESEDVGRTLDLSVIGSYQELYRKLAEMFHIEERSDLLTHVVYRDANGVIKRIGDEPFSDFMKATKRLTIKMDIGGDNVRKTWITGIRTGENGIDASTKTGPLSIFA
| Molecule | target or system | test | test system | setting | how to read | quantity | result |
| --- | --- | --- | --- | --- | --- | --- | --- |
| B1 (IAA15) | ARF22 | two-hybrid | – | – | relative to: out of 4 tests, higher = firmer interaction | positive tests | 1 |
| CN1C(C(=O)Nc2ccccn2)=C(O)c2ccccc2S1(=O)=O | A-375 | – | – | 100 µM, 60 h | – | viability | 90.6% |
| c1ccc(Oc2ccc(Nc3c4c(nc5ccccc35)CCC4)cc2)cc1 | J774.1 | resazurin | – | 0.00332 µM, 64 h | – | cytotoxicity | -6% and -3% |
| ETT (Arabidopsis thaliana, UniProt O23661) | ARF22 | two-hybrid | – | – | relative to: out of 4 tests, higher = firmer interaction | positive tests | 0 |
| COc1ccc(-c2c(Nc3ccccn3)[nH]c3c(C4=CCCCC4)c(-c4ccccc4)nn3c2=O)cc1 | – | – | human, plasma | oral, 200 mg twice daily | – | average concentration | 10300 ng/mL and 11100 ng/mL |
| B2 (IAA13) | ARF22 | two-hybrid | – | – | relative to: out of 4 tests, higher = firmer interaction | positive tests | 1 |
| CC(=O)N[C@@H](Cc1c[nH]c2ccccc12)C(=O)N[C@@H](CCC(=O)C=[N+]=[N-])C(=O)OC(C)C | – | – | CES1-/- mice, OVA-expressing MC-38 tumour | dose not given, day 10 after injection | – | tumour volume | 47 mm3 and 172 mm3 and 218 mm3 and 7 mm3 and 54 mm3 and 81 mm3 and 118 mm3 |
| C[C@H]1CC[C@H](n2c3cnccc3c3cnc(Nc4ccc5c(n4)CCN(C(=O)CO)C5)nc32)CC1 | MAPK14 (Homo sapiens, UniProt Q16539) | binding, competition with immobilised ligand | – | 1 µM | – | remaining binding | 88% |
| B3 (ARF10 575-693) | ARF22 | two-hybrid | – | – | relative to: out of 4 tests, higher = firmer interaction | positive tests | 0 |
| CN(C)CC/C=C1/c2ccccc2Sc2ccc(Cl)cc21 | UACC-903 melanoma | – | – | – | – | IC50 | 15.8 µM |

Repeated from above (set 5):
| target | remaining binding [%] |
| --- | --- |
| Tyrosine-protein kinase ABL1, phosphorylated (ABL1, Homo sapiens, UniProt P00519) | 68 |
| CAMK2G (Homo sapiens, UniProt Q13555) | 100 |
| MAPK11 (Homo sapiens, UniProt Q15759) | 100 |
| MYLK2 (Homo sapiens, UniProt Q9H1R3) | 94 |
| CSK (Homo sapiens, UniProt P41240) | 100 |
| DAPK2 (Homo sapiens, UniProt Q9UIK4) | 100 |
